Results collected from several papers.
Lines come from different studies, so protocols differ. Several values in a cell are separate wells, animals, samples, runs or records. ± gives the spread as reported.
Sequence of UniProt P08684 (whole entry, looked up): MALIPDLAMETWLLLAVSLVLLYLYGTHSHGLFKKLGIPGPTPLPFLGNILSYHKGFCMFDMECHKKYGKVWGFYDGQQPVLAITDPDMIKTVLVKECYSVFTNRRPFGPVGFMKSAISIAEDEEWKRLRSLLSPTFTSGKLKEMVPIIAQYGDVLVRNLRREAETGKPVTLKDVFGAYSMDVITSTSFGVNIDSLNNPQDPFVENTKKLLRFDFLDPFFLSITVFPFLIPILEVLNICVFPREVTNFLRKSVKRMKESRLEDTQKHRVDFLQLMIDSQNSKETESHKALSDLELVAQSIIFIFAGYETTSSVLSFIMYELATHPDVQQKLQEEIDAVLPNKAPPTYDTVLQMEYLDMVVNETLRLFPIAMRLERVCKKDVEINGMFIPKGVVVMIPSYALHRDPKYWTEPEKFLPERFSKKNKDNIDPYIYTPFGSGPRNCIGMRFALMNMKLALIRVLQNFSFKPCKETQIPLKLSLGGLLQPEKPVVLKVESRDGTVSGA

With CN(c1ccc(F)cc1)c1c(-c2cccc(F)n2)nc2ccccn12 the CC50 was over 63.1 µM (peritoneal macrophages, Swiss mice; 5 days, 5% fetal calf serum).
For Nc1ncnc2c1ncn2[C@H]1C[C@@H]2OP(=O)(O)OC[C@H]3O[C@@H](n4cnc5c(N)ncnc54)C[C@@H]3OP(=O)(O)OC[C@H]2O1, “total bile acids” read 5.92 ± 1.85 µmol/L (non-tumor-bearing mice, serum; intravenous, 1 mg/kg, toxicity study).
For O=C(Nc1cnccc1Cl)N1CCN(Cc2ccc3c(c2)OC(F)(F)O3)CC1, the renal clearance was 0.0108 L/h (healthy young women, urine; oral, 100 mg once daily, day 10).
CCO[C@H]1CCN(Cc2c(OC)cc(C)c3[nH]ccc23)[C@H](c2ccc(C(=O)O)cc2)C1 gave an unbound Cmax of 1070 ng/mL (human mild hepatic impairment, plasma; oral, 200 mg single dose, mean).
CCn1c(C(=O)N(C2CC2)C2CC2)cc2c3c(ncn3C)c(Nc3cc(C)n(C)n3)nc21 has a plasma concentration of 5500 ng/mL (cancer patients; oral, 200 mg twice daily, day 15, 336.5 h).
CNCc1ccc(-c2[nH]c3cc(F)cc4c3c2CCNC4=O)cc1 — result for “any adverse event incidence”: 100% (patients; oral, 360 mg twice daily, all grades).
Under “patients with QTcB increase”, Cc1cc(Nc2ccc(S(F)(F)(F)(F)F)cc2)n2nc(C(C)(F)F)nc2n1 is recorded as 0% (Plasmodium vivax; 12-lead ECG; malaria patients; oral, 600 mg, increase above 60 ms).
Cc1cc(N)c2c(OCC(C)(C)C(=O)NC(C)C)cccc2n1: “mean revertant colonies” 13 colonies/plate (Salmonella typhimurium; reverse mutation, plate incorporation; TA98; 5000 µg/plate, with rat liver S9).
The amide hydrolysis of CC(C(=O)NCC(=O)NCC(CNC(=O)CNC(=O)C(C)N1CCN(CC(=O)[O-])CCN(CC(=O)[O-])CCN(CC(=O)[O-])CC1)(CNC(=O)CNC(=O)C(C)N1CCN(CC(=O)[O-])CCN(CC(=O)[O-])CCN(CC(=O)[O-])CC1)CNC(=O)CNC(=O)C(C)N1CCN(CC(=O)[O-])CCN(CC(=O)[O-])CCN(CC(=O)[O-])CC1)N1CCN(CC(=O)[O-])CCN(CC(=O)[O-])CCN(CC(=O)[O-])CC1.[Gd+3].[Gd+3].[Gd+3].[Gd+3] (stereo not shown) is reported as under 15% (LC-MS; 1 mmol/L, 35 days, pH 1.2, 37°C).
For Cc1cc(NC2CCN(C(=O)OC3CCN(C(=O)/C=C/CN(C)C)C3)CC2)n2ncc(C(C)C)c2n1 (stereo not shown), “patients with adverse event” read 0% (Phase I dose escalation CTCAE v4.0, item: urinary tract infection; patients with advanced solid tumours; dose not given, QD dosing grade 3 or higher).
COc1ccnc(C(=O)N[C@@H](CO)C(=O)O)c1OCOC(=O)C(C)C — result for “DT50 whole system”: 1.2 days (Swiss Lake sand sediment, aerobic dark; 20 °C).
C=C1C(=O)O[C@@H](CCC)[C@@H]1C(=O)O (racemic) has a viability of 117% (HBL-1; 0.1 µM, 120 h).
C=CCN1CC(=O)N2[C@@H](Cc3ccc(O)cc3F)C(=O)N(Cc3cccc(N4CC(N5CCN(CC)CC5)C4)n3)C[C@@H]2N1C(=O)NCc1ccccc1: “any treatment-related adverse event” 0% (advanced solid tumour patients; oral, 45 mg twice daily, grade ≥3, dose-escalation).
N#Cc1ccc2c(c1)[C@H]1CCCN(C(=O)c3ccc4[nH]cnc4c3)[C@H]1C2 has an SHBG level of 36.4 nmol/L (human females; 240 mg, day 7).
C=CC(=O)N1CCC(c2ccc(C(N)=O)c(-c3ccc(Oc4ccccc4)cc3)n2)CC1 has an incidence of 0.9% (serious adverse event Headache; patients with relapsed/refractory MCL; oral).
For C[Si](C)(C)O[Si](C)(C)O[Si](C)(C)C, “hepatic biotransformation rate constant” read 0.298 h⁻¹ and 0.265 h⁻¹ and 0.297 h⁻¹ (Oncorhynchus mykiss; IVIVE from liver S9).
For OC[C@H]1O[C@@H](c2ccc(F)c(Cc3cc4ccccc4s3)c2)[C@H](O)[C@@H](O)[C@@H]1O, the renal clearance was 0.109 ± 0.0197 L/h (Japanese type 2 diabetes patients, plasma; oral, 25 mg/day, day 14).
For Cc1nc(-c2ccc(OCC(C)C)c(C#N)c2)sc1C(=O)O, “participants with AEs grade 1 or above” read 25% (healthy Chinese subjects; oral, 40 mg single, fed).
Under “revertant colonies per plate”, CC[C@H](CO)N(CCN(N=O)[C@H](CC)CO)N=O is recorded as 198 ± 22 (Salmonella typhimurium; mutagenicity, Ames plate incorporation; TA100; 5000 µg/plate, without S9, methanol).
For NCCONC(=O)[C@@H]1CC[C@@H]2CN1C(=O)N2OS(=O)(=O)O, “cumulative urinary excretion (0-24 h)” read 76.7% (human, male, urine; intravenous infusion, 2 g single dose; relative to: dose).
For CCO[C@H]1CCN(Cc2c(OC)cc(C)c3[nH]ccc23)[C@H](c2ccc(C(=O)O)cc2)C1, “incidence impaired fasting glucose” read 14.3% (PNH patients, active haemolysis; oral, 100 mg, 8 weeks, treatment).
With C=CC(=O)NC1CCN(c2ncc3ncnc(Nc4ccc(Oc5ccc6c(c5)ncn6C)c(C)c4)c3n2)CC1 the blood-to-plasma ratio was 0.757 (item: total radioactivity; healthy male human, whole blood and plasma; oral, 60 mg, 4 h, geometric mean).
For Cc1ccccc1-c1ccc([C@H]2[C@@H](CO)N3C(=O)CN(C(=O)Cc4ccccn4)C[C@@H]23)cc1, the EC50 was 3.2 µM (IDE (Homo sapiens, UniProt P14735); enzyme activity, inhibitor, fluorogenic kinetic; with: Mca-RPPGFSAFK(Dnp)-OH substrate).
COc1ccc(F)cc1C(=O)NCc1ccc(-c2nn([C@@H](C)C(F)(F)F)c(N)c2C(N)=O)cc1: “recovery of dose” 28.2% (human male, urine and feces; oral, 200 mg, time not given, with: [14C] label).
For c1coc(-c2n[nH]cc2-c2ccnc3ccccc23)c1, “log2 fold change” read -0.04 (KIC1 (Candida albicans); kinase binding, MIB/MS competition; Candida albicans lysate; 1 µM; relative to: DMSO).
With Cc1cccc(CNC(=O)c2cn(CCNC(=O)c3ccccc3Sc3c([N+](=O)[O-])ncn3C)c3cc4c(cc3c2=O)OC(F)(F)O4)n1 the bioavailability was 34% (Sprague-Dawley rat, male, whole blood; intramuscular, 10 mg/kg of parent drug).
OC[C@H]1O[C@@H](c2ccc(Cl)c(Cc3ccc(O[C@H]4CCOC4)cc3)c2)[C@H](O)[C@@H](O)[C@@H]1O: “change in AST” 0 U/L (Japanese type 1 diabetes patients, blood; 2.5 mg, day 28; relative to: baseline).
Under “peak dyskinesia disability score”, N[C@@H](Cc1ccc(O)c(O)c1)C(=O)O is recorded as 3 (MPTP-lesioned marmoset, dyskinetic; 20 mg/kg, scale 0-3; direction not given).
NC1(C(=O)N[C@@H](CCO)c2ccc(Cl)cc2)CCN(c2nc[nH]c3nccc2-3)CC1 gave a Tmax of 2.5 h (LC-MS/MS, non-compartmental; human patients, plasma; 160/320 mg cohort, cycle 2, geometric mean, with: enzalutamide).
Cn1cc(-c2ccc(-c3cncc(Cl)c3N3CCC4(CCNC4=O)CC3)cc2)cn1: “log2 fold change” 2.07 (COLO 205; gene expression, microarray, item: NDRG1 mRNA; concentration not given, 2 h; relative to: untreated cells).
CC(=O)Nc1cccc(-n2c(=O)n(C3CC3)c(=O)c3c(Nc4ccc(I)cc4F)n(C)c(=O)c(C)c32)c1 has a viability of 0.358 (NCI-H2087 (BRAF L597V); 100.00 nM, 72 h, unit not given; relative to: DMSO).
NC(=O)c1cccnc1 gave a viability of 114% (HBL-1; 0.1 µM, 120 h).
For N[C@@H](CC(=O)O)C(=O)OC(C(=O)O)c1ccccc1[N+](=O)[O-].O=C(O)C(F)(F)F (mixture of isomers), “hydrolysis half-life, A isomer” read 14.6 ± 0.2 h (1H NMR, dark; 50 mM sodium phosphate; concentration not given, pH 9.0, room temperature, 12.5% DMSO-d6).
For C[C@H]1Oc2cc(cnc2N)-c2c(nn(C)c2C#N)CN(C)C(=O)c2ccc(F)cc21, the clearance was 148 mL/min (population PK; healthy participants and patients, plasma; oral, 100 mg, median, single dose).
For CC(C)c1nc(N(C)S(C)(=O)=O)nc(-c2ccc(F)cc2)c1/C=C/[C@@H](O)C[C@@H](O)CC(=O)O, “subjects with adverse event” read 0% (item: headache; healthy men; oral, dose not given, 8 days, treatment-emergent, crossover trial).
For N#C[C@@]1(c2ccc3c(N)ncnn23)O[C@H](CO)[C@@H](O)[C@H]1O, the AUC(0-t) was 19100 ng·h/mL (dog, plasma; oral, 5 mg/kg, solution, recalculated NCATS data).
O=C(O)CCC(=O)O.[2H]C([2H])([2H])Oc1cc(C)c2[nH]ccc2c1CN1CC[C@@H](C2CC2)C[C@H]1c1ccc(C(=O)O)cc1: “subjects with reduced potassium TEAE” 0% (multiple ascending dose; healthy Chinese subjects; 125 mg twice daily).
For O=C(Nc1nc2cccc(-c3ccc(CN4CCS(=O)(=O)CC4)cc3)n2n1)C1CC1, “treatment-emergent adverse events” read 0% (item: chills; human rheumatoid arthritis patients; oral, 200 mg once daily, 4 weeks, regardless of relatedness).
The AUClast of CO[C@H]1C[C@@H]2CC[C@@H](C)[C@@](O)(O2)C(=O)C(=O)N2CCCC[C@H]2C(=O)O[C@H]([C@H](C)C[C@@H]2CC[C@@H](OC(=O)NCCOCCOCCOCCOCCOCCOCCOCCOCCC(=O)N3CCc4cc(Cn5nc(-c6ccc7oc(N)nc7c6)c6c(N)ncnc65)ccc4C3)[C@H](OC)C2)C[C@@H](O)[C@H](C)/C=C(\C)[C@@H](O)[C@@H](OC)C(=O)[C@H](C)C[C@H](C)/C=C/C=C/C=C/1C is reported as 491 ng·h/mL (human patients, plasma; intravenous, 10 mg, cycle 1 day 1, weekly dosing, 1 h infusion, arithmetic mean).
Under “lambda z mean”, CC[C@H]1[C@@H](O)[C@@H]2[C@H](CC[C@]3(C)[C@@H]([C@H](C)CCNC(=O)NS(=O)(=O)c4ccc(C(C)(C)C)cc4)CC[C@@H]23)[C@@]2(C)CC[C@@H](O)C[C@@H]12 is recorded as 0.0605 h⁻¹ (Cytochrome P450 3A4 (CYP3A4, Homo sapiens, UniProt P08684); human, plasma; 10 mg, day 1, compound alone; direction not given).
CC(=O)/N=S(/c1ccccc1)c1ccc(C)cc1 (stereo not shown) gave a metabolic stability of under 23% (human liver microsomes; relative to: hepatic blood flow).
For Cc1cc(Nc2ncnc3ccc(NC4=NC(C)(C)CO4)cc23)ccc1Oc1ccn2ncnc2c1, “CL/F, geometric mean” read 148 L/h (human, plasma; oral, 300 mg, day 1, single dose alone).
FC(F)(F)c1ccc(CNc2ccc(Cc3c[nH]c4ncc(Cl)cc34)cn2)cn1: “treatment-related adverse events” 0% (item: Hypertension; patients with advanced solid tumours, non-TGCT cohort; oral, 1000 mg/day, grade 3 or higher).
CCc1cc(C(=O)NC)c2nccc(N3CCc4c(cc(Cn5ccnc5)cc4-c4cn(C)nc4C(F)(F)F)C3=O)c2c1 — result for “change in clinical chemistry or haematology parameter”: -37.5% (item: Neut; Sprague Dawley rat; oral, 100 mg/kg once daily, 7 days; relative to: vehicle).
For COc1ccc2c(=O)n(C)c(-c3ccccc3)nc2c1, the tissue/plasma ratio was 731 (Sprague-Dawley rat, male, stomach; oral, 30 mg/kg, 0.25 h; relative to: stomach over plasma).
CC(C)n1c(Nc2cccnc2)nc2cnc(Nc3ccc(N4CCN(C)CC4)cc3)nc21: “subjects with adverse event” 7.1% (item: LDL cholesterol increased; healthy male subjects; oral, 100 mg, study, with: gemfibrozil).

For quick reference, copied from above:
CC(=O)/N=S(/c1ccccc1)c1ccc(C)cc1 (stereo not shown) gave a metabolic stability of under 23% (human liver microsomes; relative to: hepatic blood flow).
O=C(O)CCC(=O)O.[2H]C([2H])([2H])Oc1cc(C)c2[nH]ccc2c1CN1CC[C@@H](C2CC2)C[C@H]1c1ccc(C(=O)O)cc1: “subjects with reduced potassium TEAE” 0% (multiple ascending dose; healthy Chinese subjects; 125 mg twice daily).
COc1ccnc(C(=O)N[C@@H](CO)C(=O)O)c1OCOC(=O)C(C)C — result for “DT50 whole system”: 1.2 days (Swiss Lake sand sediment, aerobic dark; 20 °C).
For Cc1cc(NC2CCN(C(=O)OC3CCN(C(=O)/C=C/CN(C)C)C3)CC2)n2ncc(C(C)C)c2n1 (stereo not shown), “patients with adverse event” read 0% (Phase I dose escalation CTCAE v4.0, item: urinary tract infection; patients with advanced solid tumours; dose not given, QD dosing grade 3 or higher).
For NCCONC(=O)[C@@H]1CC[C@@H]2CN1C(=O)N2OS(=O)(=O)O, “cumulative urinary excretion (0-24 h)” read 76.7% (human, male, urine; intravenous infusion, 2 g single dose; relative to: dose).
